# Measurements collected from several papers.
# Compare with care: the assays were run in different laboratories. ± gives the spread as reported.
# Organism: Staphylococcus aureus
Molecule,assay,system,setting,MIC
CN[C@H](CC(C)C)C(=O)N[C@H]1C(=O)N[C@@H](CC(N)=O)C(=O)N[C@H]2C(=O)N[C@H]3C(=O)N[C@H](C(=O)N[C@H](C(=O)O)c4cc(O)cc(O)c4-c4cc3ccc4O)[C@H](O)c3ccc(c(Cl)c3)Oc3cc2cc(c3O[C@@H]2O[C@H](CO)[C@@H](O)[C@H](O)[C@H]2O[C@H]2C[C@](C)(N)[C@H](O)[C@H](C)O2)Oc2ccc(cc2Cl)[C@H]1O,"microbial growth, broth dilution",ATCC29213,16 h,1 µg/mL
Cc1ccc(C(C)C)cc1.Cc1ccc(C(C)C)cc1.[Cl][Ru][Cl].[Cl][Ru][Cl],broth microdilution,ATCC 29213,37 °C,> 1000 µg/mL
CN[C@H](CC(C)C)C(=O)N[C@H]1C(=O)N[C@@H](CC(N)=O)C(=O)N[C@H]2C(=O)N[C@H]3C(=O)N[C@H](C(=O)N[C@H](C(=O)O)c4cc(O)cc(O)c4-c4cc3ccc4O)[C@H](O)c3ccc(c(Cl)c3)Oc3cc2cc(c3O[C@@H]2O[C@H](CO)[C@@H](O)[C@H](O)[C@H]2O[C@H]2C[C@](C)(N)[C@H](O)[C@H](C)O2)Oc2ccc(cc2Cl)[C@H]1O,,"MRSA 5, Tet M, 50% human serum",,1 µg/mL
O=C(Cc1ccccc1F)N1CCC(c2ccccc2)C1 (stereo not shown),,various strains incl. MRSA,,≥ 50 µg/mL
CCCCCCC/C=C/C(=O)N1C(=O)/C(=C(/C)O)C(=O)C1Cc1ccc(OC(C)(C)C)cc1 (stereo not shown),"microbial growth, broth dilution",MSSA NEWMAN,,< 0.1 µg/mL
Oc1ccc(C=Nc2ncn[nH]2)cc1,"microbial growth, broth dilution",ATCC29213,,256 µg/mL
CCC(CC)c1cc(CCN2CCCN(Cc3ccc(C(F)(F)F)cc3)CC2)nc(-c2ccncc2)n1,"microbial growth, broth dilution",ATCC29213,,3 to 4 µg/mL
O=C(O)c1cccc(-n2c(SCc3ccccc3)nc3ccccc3c2=O)c1,broth microdilution,ATCC 29213 MSSA,,0.125 to 2 µg/mL
CCc1cc(=O)c2c(OCC(O)CNC(C)C)c3ccoc3c(OC)c2o1 (stereo not shown),"microbial growth, broth dilution",ATCC6538,19 h,> 256 µg/mL
CCCCCCC/C=C/C(=O)N1C(=O)/C(=C(\O)c2ccc(OCOCCOC)cc2)C(=O)C1CC(C)C (stereo not shown),"microbial growth, broth dilution",MSSA NEWMAN,,0.78 µg/mL
NC[C@@H]1O[C@H](O[C@H]2[C@@H](O)[C@H](O[C@@H]3[C@@H](O)[C@H](N)C[C@H](N)[C@H]3O[C@H]3O[C@H](CO)[C@@H](O)[C@H](O)[C@H]3N)O[C@@H]2CO)[C@H](N)[C@@H](O)[C@@H]1O,"microbial growth, broth dilution",MRSA,clinical isolate,4 µg/mL
CCCCCCCCn1sc2ccccc2c1=O,,,panel of 28 strains,0.25 to 2 µg/mL
COc1cc2cc(-c3cccc(-c4ccc(C(C)(C)C)cc4)c3)[n+](C)c(C)c2cc1OC,broth microdilution,8325-4 MSSA,,2.3 µM
CN(C)c1ccc(O)c2c1C[C@H]1C[C@H]3[C@H](N(C)C)C(O)=C(C(N)=O)C(=O)[C@@]3(O)C(O)=C1C2=O,,"MRSA 5, Tet M, 50% human serum",,16 µg/mL
COc1cc2cc(-c3cccc(-c4ccc(-c5ccccc5)cc4)c3)[n+](C)c(C)c2cc1OC.[I-],broth microdilution,"ATCC 33591 MRSA, broth with 2% NaCl","24 h, 37 °C",1 to 8 µg/mL
CC(=O)NC[C@H]1CN(c2ccc(N3CCOCC3)c(F)c2)C(=O)O1,,ATCC 29213 MSSA,,4 µg/mL
COc1ccccc1C1CCN(C(=O)Cc2ccccc2F)C1 (stereo not shown),,various strains incl. MRSA,,≥ 50 µg/mL
CCOc1ccc2ccccc2c1C(=O)N[C@@H]1C(=O)N2[C@@H]1SC(C)(C)[C@@H]2C(=O)O,broth microdilution,USA300 LAC,1% human serum,1 µM
C(=Nc1ncn[nH]1)c1ccc(-c2ccccc2)cc1,broth microdilution,"MRSA2, methicillin-resistant",16 to 24 h,128 µg/mL
teicoplanin aglycone,,USA300 methicillin resistant,"18 h, 37 °C",1 µg/mL
CCCCCCC/C=C/C(=O)N1C(=O)/C(=C(\O)c2ccc(F)cc2)C(=O)C1CC(C)C (stereo not shown),"microbial growth, broth dilution",MSSA NEWMAN,,0.2 µg/mL
CNC(C)C1CCC(N)C(OC2C(N)CC(N)C(OC3OCC(C)(O)C(NC)C3O)C2O)O1 (stereo not shown),,MRSA USA300,20% human serum,0.5 µM
C(=Nc1ncn[nH]1)c1ccncc1,"microbial growth, broth dilution",ATCC29213,,256 µg/mL
O=C(N[C@H](CO)[C@H](O)c1ccc([N+](=O)[O-])cc1)C(Cl)Cl,"microbial growth, broth dilution",,,< 41 µg/mL
CN(C)c1cc(NC(=O)CNC(C)(C)C)c(O)c2c1C[C@H]1C[C@H]3[C@H](N(C)C)C(O)=C(C(N)=O)C(=O)[C@@]3(O)C(O)=C1C2=O,,"MRSA 5, Tet M, 50% human serum",,1 µg/mL
CCc1cc(=O)c2c(OCC(O)CNC(C)(C)C)c3ccoc3c(OC)c2o1 (stereo not shown),"microbial growth, broth dilution",ATCC6538,19 h,> 256 µg/mL
CC(=O)NC[C@H]1CN(c2ccc(N3CCOCC3)c(F)c2)C(=O)O1,broth microdilution,USA300 LAC,10% human serum,8 µM
Clc1ccc(C=Nc2ncn[nH]2)cc1,"microbial growth, broth dilution",ATCC29213,,256 µg/mL
CCc1cc(=O)c2c(O)c3ccoc3c(OC)c2o1,"microbial growth, broth dilution",ATCC29,19 h,128 µg/mL
COc1ccccc1C1CCN(C(=O)Cc2ccccc2Cl)C1 (stereo not shown),,various strains incl. MRSA,,12.5 to 25 µg/mL
CCCCCCC/C=C/C(=O)N1C(=O)/C(=C(\O)c2ccc(O)cc2)C(=O)C1CC(C)C (stereo not shown),"microbial growth, broth dilution",MSSA NEWMAN,,6.25 µg/mL
CN[C@H](CC(C)C)C(=O)N[C@H]1C(=O)N[C@@H](CC(N)=O)C(=O)N[C@H]2C(=O)N[C@H]3C(=O)N[C@H](C(=O)N[C@H](C(=O)O)c4cc(O)cc(O)c4-c4cc3ccc4O)[C@H](O)c3ccc(c(Cl)c3)Oc3cc2cc(c3O[C@@H]2O[C@H](CO)[C@@H](O)[C@H](O)[C@H]2O[C@H]2C[C@](C)(N)[C@H](O)[C@H](C)O2)Oc2ccc(cc2Cl)[C@H]1O,bacterial growth,"ATCC 12608, LB broth","18 h, 37 °C",0.7 µM
CCOC(=O)c1c(N)csc1-c1cn(-c2ccccc2)nc1-c1ccc(C)cc1,broth microdilution,clinical urinary isolate,compound gamma-irradiated 20 kGy,0.124 ± 0.4 µg/mL
O=[N+]([O-])c1ccc(C=Nc2ncn[nH]2)cc1,"microbial growth, broth dilution",ATCC29213,,64 µg/mL
CCc1cc(=O)c2c(OCC(O)CN(CC)CC)c3ccoc3c(OC)c2o1 (stereo not shown),"microbial growth, broth dilution",ATCC6538,19 h,> 256 µg/mL
COc1cc(OC)cc(-n2sc3ccccc3c2=O)c1,,,panel of 28 strains,≤ 2 µg/mL
CCc1cc(=O)c2c(OCC(O)CN3CCCCC3)c3ccoc3c(OC)c2o1 (stereo not shown),"microbial growth, broth dilution",ATCC25,19 h,> 256 µg/mL
O=[N+]([O-])c1ccc(C=Nc2nc[nH]n2)c(O)c1,broth microdilution,"MRSA2, methicillin-resistant",16 to 24 h,32 µg/mL
CN(Cc1cnc2nc(N)nc(N)c2n1)c1ccc(C(=O)N[C@@H](CCC(=O)O)C(=O)O)cc1,"microbial growth, broth dilution",ATCC43300,18 h,125 µg/mL
CCCCC(=O)N1C(=O)/C(=C(/C)O)C(=O)C1CC(C)C (stereo not shown),"microbial growth, broth dilution",MSSA NEWMAN,,50 µg/mL
COc1ccccc1C1CCN(C(=O)Cc2c(F)cccc2F)C1 (stereo not shown),,various strains incl. MRSA,,≥ 50 µg/mL
O=C(O)c1ccc(C=Nc2ncn[nH]2)cc1,"microbial growth, broth dilution",ATCC29213,,256 µg/mL
CCCCCCC/C=C/C(=O)N1C(=O)/C(=C(/C)O)C(=O)C1CCC(=O)O (stereo not shown),"microbial growth, broth dilution",MSSA NEWMAN,,> 200 µg/mL
O=C(Cc1ccccc1Cl)N1CCC(c2ccccc2)C1 (stereo not shown),,various strains incl. MRSA,,12.5 to 25 µg/mL
CS(=O)(=O)c1ccc(C=Nc2ncn[nH]2)cc1,broth microdilution,"MRSA2, methicillin-resistant",16 to 24 h,> 256 µg/mL
CCc1cc(=O)c2c(OCC3CO3)c3ccoc3c(OC)c2o1 (stereo not shown),"microbial growth, broth dilution",ATCC25,19 h,> 256 µg/mL

# A few entries again:
Molecule,assay,system,setting,MIC
O=[N+]([O-])c1ccc(C=Nc2nc[nH]n2)c(O)c1,broth microdilution,"MRSA2, methicillin-resistant",16 to 24 h,32 µg/mL
O=C(O)c1cccc(-n2c(SCc3ccccc3)nc3ccccc3c2=O)c1,broth microdilution,ATCC 29213 MSSA,,0.125 to 2 µg/mL
CCC(CC)c1cc(CCN2CCCN(Cc3ccc(C(F)(F)F)cc3)CC2)nc(-c2ccncc2)n1,"microbial growth, broth dilution",ATCC29213,,3 to 4 µg/mL
